# Earlier results that unrelated publications cite.
# Lines come from different studies, so protocols differ. Numbers after ± are the reported error.
Structure (SMILES),target or system,test,system,conditions,endpoint,value
CC(C)(C)c1ccc(NC(=O)c2ccc(-c3ncccc3C(F)(F)F)cc2)cc1,TRPV1,"calcium flux, antagonist",HEK293,added: capsaicin,IC50,6 nM
COc1ccccc1Oc1cccc(CN2CCC(NC(=O)C(CCN3CCCC3)c3ccccc3)CC2)c1 (stereo not shown),human CCR8 V109A mutant (TM3),"IP accumulation, agonist",,,EC50,2.6 nM
O=C(NCc1cccc(C(F)(F)F)c1)Nc1cccc2cnccc12,TRPV1,"calcium flux, antagonist",HEK293,added: capsaicin,IC50,11 nM
CCNS(=O)(=O)c1ccc(OC)cc1C1(O)CCN(Cc2cccc(Oc3ccccc3OC)c2)CC1,human CCR8 Y42A mutant (TM1),"IP accumulation, agonist",,,EC50,178 nM
Cc1c(C#N)cccc1[C@@H](C)Nc1nnc(C)c2cnc(N3CCOCC3)cc12,RERF-LC-Ad1,"In-Cell Western, item: pERK",,,IC50,79.9 ± 58.7 nM
CC1(C)S[C@@H]2[C@H](NC(=O)[C@H](N)c3ccccc3)C(=O)N2[C@H]1C(=O)O,Klebsiella pneumoniae,,clinical isolate RKI-No_93/10,,MIC,> 16 µg/mL
FC(F)(F)c1ccc(Nc2nc(N3CCOCC3)nc3sc(Nc4c(Cl)cccc4Cl)nc23)cc1,TRPV1,"calcium flux, antagonist",HEK293,added: capsaicin,IC50,30 nM
COc1ccccc1Oc1cccc(CN2CCC(NC(=O)C3CC(=O)Nc4ccccc43)CC2)c1 (stereo not shown),human CCR8 H283A mutant (TM7),"IP accumulation, agonist",,,EC50,46 nM
CNC(C)C1CCC(N)C(OC2C(N)CC(N)C(OC3OCC(C)(O)C(NC)C3O)C2O)O1 (stereo not shown),Escherichia coli,,clinical isolate RKI-No_330/16,,MIC,2 µg/mL
CCCCC(CC)C(=O)O (stereo not shown),CALUX reporter cell lines,reporter gene,,"cell-total, maximum across",EC10,70000 nM
C[C@H]1COCCN1c1nc(-c2cnc(N)cc2C(F)F)nc(N2CCOCC2)n1,769-P,,,,GI50,458 nM
COCCCc1nc(C(F)(F)F)ccc1CNC(=O)Nc1cccc2[nH]ncc12,TRPV1,"calcium flux, antagonist",HEK293,added: capsaicin,IC50,12 nM
COc1ccccc1Oc1cccc(CN2CCC(O)(c3ccccc3C(=O)O)CC2)c1,human CCR8 Q91W mutant (TM2),"IP accumulation, agonist",,,EC50,368 nM
FC(F)(F)c1ccc(Nc2ncnc3sc(Nc4c(Cl)cccc4Cl)nc23)cn1,TRPV1,"calcium flux, antagonist",HEK293,added: capsaicin,IC50,14 nM
COc1ccccc1Oc1cccc(CN2CCC3(CC2)C(=O)NCN3CCc2ccccc2)c1,CCR8 human G206W,"inositol phosphate accumulation, agonist",,,EC50,no effect
NC(=S)NN=Cc1ncccc1N,human cervical cancer cells,,,"concentration not given, clinically attainable concentrations and times",cell survival,80%
CC(C)(F)CCc1cc(C(F)(F)F)ccc1CNC(=O)Nc1cccc2[nH]ncc12,TRPV1,"calcium flux, antagonist",HEK293,added: capsaicin,IC50,6 nM
Cc1cnc(N2CC3(CCOCC3)C2)c(C(=O)Nc2ccc(C(=O)N3CCc4cc(C(=O)Nc5c(C)cccc5F)sc4-c4ccccc43)cc2)c1,respiratory syncytial virus,cytopathic effect,B WST,,IC90,0.0408 µg/mL
Nc1cc(C(F)(F)F)c(-c2nc(N3CCOCC3)nc(N3CCOCC3)n2)cn1,OVCAR-3,,,,GI50,229 nM

# For quick reference, copied from above:
Structure (SMILES),target or system,test,system,conditions,endpoint,value
NC(=S)NN=Cc1ncccc1N,human cervical cancer cells,,,"concentration not given, clinically attainable concentrations and times",cell survival,80%
CCCCC(CC)C(=O)O (stereo not shown),CALUX reporter cell lines,reporter gene,,"cell-total, maximum across",EC10,70000 nM
CC(C)(C)c1ccc(NC(=O)c2ccc(-c3ncccc3C(F)(F)F)cc2)cc1,TRPV1,"calcium flux, antagonist",HEK293,added: capsaicin,IC50,6 nM
